Published values of several laboratories.
Compare with care: the assays were run in different laboratories. ± marks the error that the study gave.

| Structure (SMILES) | assay | test system | setting | half-life [min] |
| --- | --- | --- | --- | --- |
| CCN(CC)CCOc1ccc(-c2nnn(Cc3ccc(OC)cc3)c2N)cc1 | metabolic stability | human, liver microsomes |  | 162 |
| C#CCCCNC(=O)CC(Cc1ccc(F)cc1)NC(=O)C(Cc1ccc(Cl)cc1Cl)NC(=O)C(N)Cc1ccccc1C#N (stereo not drawn) | metabolic stability | CD-1 mouse, liver microsomes | 1 µM | 11 |
| COCC12CCC(OC)C34C5CC6(O)C(OC)C(O)C(O)(C5C6OC(=O)c5ccccc5)C(C(OC)C13)C4N(C)C2 (stereo not drawn) |  | Sprague-Dawley rat, plasma | oral, dose not given, with H in PCW extract | 607 ± 307 |
| C#Cc1c(F)ccc2cc(O)cc(-c3ncc4c(N5CC6CCC(C5)N6C(=O)OC(C)OC(C)=O)nc(OC[C@@]56CCCN5C[C@H](F)C6)nc4c3F)c12 (stereo partly drawn) | metabolic stability | mouse, liver microsomes | 1 µM, pH 7.4 | 0.56 |
| CN(C)CCCNC(=O)C[C@H](Cc1ccc(F)cc1)NC(=O)[C@@H](Cc1ccc(Cl)cc1Cl)NC(=O)[C@H](N)Cc1ccccc1C#N | metabolic stability | human, liver microsomes | 1 µM | 7.6 |
| c1ccc([C@H]2CCC[C@@]3(C2)OOC2(O3)C3CC4CC(C3)CC2C4)c(OCCN2CCOCC2)c1 (mixture of isomers) | metabolic stability | human, liver microsomes |  | 4.9 |
| CNC(=O)C[C@H](Cc1ccc(F)cc1)NC(=O)[C@@H](Cc1ccc(Cl)cc1Cl)NC(=O)[C@H](N)Cc1ccccc1C#N | metabolic stability | CD-1 mouse, liver microsomes | 1 µM | 0.9 |
| C#Cc1c(F)ccc2cc(O)cc(-c3ncc4c(N5CC6CCC(C5)N6C(=O)OC(C)OC(=O)c5ccccc5)nc(OC[C@@]56CCCN5C[C@H](F)C6)nc4c3F)c12 (stereo partly drawn) | metabolic stability | mouse, liver microsomes | 1 µM, pH 7.4 | 0.64 |
| CSCC[C@@H]1NC(=O)[C@H](C(C)C)NC(=O)[C@H](CCCNC(=N)N)NC(=O)[C@@H]2CCCN2C(=O)CNC(=O)[C@@H](NC(=O)CNC(=O)[C@H](CO)NC(=O)CNC(=O)[C@H](CO)NC(=S)Nc2ccc(C[C@H]3CN(CC(=O)O)CCN(CC(=O)O)CCN3CC(=O)O)cc2)CSSC[C@@H](C(N)=O)NC(=O)[C@@H]2CCCN2C(=O)CNC(=O)[C@H](CCC(=O)O)NC(=O)[C@H](CC(=O)O)NC(=O)[C@H](CC(=O)O)NC(=O)CNC(=O)[C@H](CC(C)C)NC(=O)[C@H](Cc2c[nH]cn2)NC(=O)[C@H](CC(C)C)NC(=O)CNC(=O)[C@H](Cc2c[nH]cn2)NC1=O [copper-64 labelled] | dynamic PET | CD rat, myocardial infarction model, remote myocardium | intravenous, 18.5 MBq, 15 to 60 min | 24.3 ± 2.4 |
| O=C(O)/C=C\c1ccc2occc2c1O[C@@H]1O[C@H](CO)[C@@H](O)[C@H](O)[C@H]1O |  | rat, plasma | oral, 217 mg/kg Pc extract, dosed as Pc extract | 149 ± 52.2 |
| CSCC[C@@H]1NC(=O)[C@H](C(C)C)NC(=O)[C@H](CCCNC(=N)N)NC(=O)CNC(=O)[C@@H]2CCCN2C(=O)[C@@H](NC(=O)CNC(=O)[C@H](CO)NC(=O)CNC(=O)[C@H](CO)NC(=S)Nc2ccc(C[C@H]3CN(CC(=O)O)CCN(CC(=O)O)CCN3CC(=O)O)cc2)CSSC[C@@H](C(N)=O)NC(=O)[C@@H]2CCCN2C(=O)CNC(=O)[C@H](CCC(=O)O)NC(=O)[C@H](CC(=O)O)NC(=O)[C@H](CC(=O)O)NC(=O)CNC(=O)[C@H](CC(C)C)NC(=O)[C@H](Cc2c[nH]cn2)NC(=O)[C@H](CC(C)C)NC(=O)CNC(=O)[C@H](Cc2c[nH]cn2)NC1=O [copper-64 labelled] | dynamic PET | CD rat, myocardial infarction model, fibrotic infarct myocardium | intravenous, 18.5 MBq, 15 to 60 min | 29.3 ± 5.8 |
| CCN1CC2(COC)C(O)CC(OC)C34C5CC6(O)C(OC)C(O)C(O)(C5C6OC(=O)c5ccccc5)C(C(OC)C23)C14 (stereo not drawn) |  | Sprague-Dawley rat, plasma | oral, dose not given, with NADES in PCW extract | 289 ± 128 |

Repeated from above:
| Structure (SMILES) | assay | test system | setting | half-life [min] |
| --- | --- | --- | --- | --- |
| C#Cc1c(F)ccc2cc(O)cc(-c3ncc4c(N5CC6CCC(C5)N6C(=O)OC(C)OC(=O)c5ccccc5)nc(OC[C@@]56CCCN5C[C@H](F)C6)nc4c3F)c12 (stereo partly drawn) | metabolic stability | mouse, liver microsomes | 1 µM, pH 7.4 | 0.64 |
